Published values of several laboratories.
Protocols differ between the studies behind these lines. Several values in a cell are separate wells, animals, samples, runs or records. ± gives the spread as reported.
GAP50: Glideosome-associated protein 50 (GAP50, Plasmodium falciparum, UniProt Q8I2X3)
TRPM8: Transient receptor potential cation channel subfamily M member 8 (TRPM8, Homo sapiens, UniProt Q7Z2W7)
FFAR4: Free fatty acid receptor 4 (FFAR4, Homo sapiens, UniProt Q5NUL3)
TOP2A: DNA topoisomerase 2-alpha (TOP2A, Homo sapiens, UniProt P11388)
Kir3.1/Kir3.2: Kir3.1/Kir3.2 (Homo sapiens, UniProt P48051+P48549)

The koff of `COc1nc2ccc(Br)cc2cc1[C@@H](c1ccccc1)[C@@](O)(CCN(C)C)c1cccc2ccccc12` is reported as 0.0182 s⁻¹ (GAP50; binding, surface plasmon resonance; 1:1 binding model).
`NCc1ccccc1` has a log Kd of -5.2 M (Maoa (Rattus norvegicus, UniProt P21396); pKa-corrected).
`c1ccc(C(NCc2cccnc2)(c2ccccc2)c2ccccc2)cc1`: “G-V slope factor” 13 ± 10 mV (KCNQ1 (Homo sapiens, UniProt P51787); channel activation; 100 pM).
`NC(=O)NOCCCCCCCCCCCCCCCCCCCC[P+](c1ccccc1)(c1ccccc1)c1ccccc1.O=C([O-])C(F)(F)F` — result for “oxygen consumption rate”: 6.26 ± 2.75% (NADH dehydrogenase [ubiquinone] iron-sulfur protein 7, mitochondrial/NADH dehydrogenase [ubiquinone] iron-sulfur protein 2, mitochondrial/MT-ND1 (Homo sapiens, UniProt O75251+O75306+P03886); complex I-dependent respiration, Seahorse XF96; HCT-116; 5 µM, 24 h; relative to: control).
Under “ΔH of binding”, `Nc1nc2c(ncn2[C@@H]2O[C@H](COP(=O)(O)O)[C@@H](O)[C@H]2O)c(=O)[nH]1` is recorded as -8.58 ± 0.34 kcal/mol (GUK1 (Homo sapiens, UniProt Q16774); ITC; concentration not given).
The remaining activity of `O=C1Nc2ccccc2/C1=C\c1c(Cl)[nH]c2ccccc12` is reported as 81.9 ± 16.9% (TRPM8; antagonist; HEK293; 5 µM; relative to: control).
The Hill slope of `CCn1c(NC(=O)Nc2ccccc2C)nc2ccccc21` is reported as 0.9 (3-oxoacyl-[acyl-carrier-protein] reductase FabG (fabG, Pseudomonas aeruginosa, UniProt O54438); enzyme activity, inhibitor, NADPH fluorescence; reverse reaction, added: 3-OH-decanoyl-NAC, NADP).
`Nc1nc2c(F)c(F)c(F)cc2[nH]1` has a Hill coefficient of 0.94 ± 0.05 (HVCN1 (Homo sapiens, UniProt Q96D96, F150A); proton current, inhibitor, inside-out patch clamp).
`O=C(CNc1cccc2c1C(=O)N(C1CCC(=O)NC1=O)C2=O)NCCCCCCN1CCc2c(c3ccccc3n2Cc2ccc(C(=O)NO)cc2)C1` (centres unmarked) has a degradation of 93% (HDAC10 (Homo sapiens, UniProt Q969S8); degrader, western blot; MM1.S; 1 µM, 24 h).
`CC(C)CCNc1cc(=O)[nH]c(=O)[nH]1` has an agonist effect of 0% (FFAR4; β-arrestin recruitment; CHO; 10 µM; relative to: 30 µM TUG-891).
`O=C(COP(=O)(O)O)[C@@H](O)[C@H](O)[C@H](O)COP(=O)(O)O` — result for “thermal stability ratio”: 0.931 and 0.586 and 0.682 (Large ribosomal subunit protein uL4 (Homo sapiens, UniProt P36578); thermal proteome profiling, measured: RPL4; HepG2 cell lysate; concentration not given, 57 over 37 °C; relative to: compound over control).
For `Cc1ccc(S(=O)(=O)Nc2ccc(CN3CCN(C(=O)c4cccc(C#N)c4)CC3)cc2)cc1`, the kon was 40700 M⁻¹ s⁻¹ (GAP50; binding, surface plasmon resonance; 1:1 binding model).
`Cc1cc2c(c(=O)[nH]1)C(=O)O/C2=C\c1cc(Cl)ccc1OC(C)C` gave a ligand efficiency of 0.42 (Dual specificity calcium/calmodulin-dependent 3',5'-cyclic nucleotide phosphodiesterase 1C, isoform PDE1C2 (PDE1C, Homo sapiens, UniProt Q14123); enzyme activity, inhibitor; added: 3H-cGMP substrate).
`CC[C@H](C)[C@H](NC(=O)[C@H](CO)NC(=O)[C@@H](N)CC(=O)O)C(=O)N[C@@H](CCCNC(=N)N)C(=O)NCC(=O)N[C@@H](Cc1ccccc1)C(=O)N[C@@H](CC(C)C)C(=O)N[C@H](C(=O)N[C@@H](CCCNC(=N)N)C(=O)N1CCC[C@H]1C(=O)N[C@H](C(=O)N[C@@H](CCCNC(=N)N)C(=O)N[C@H](C(=O)N[C@H](C(=O)N[C@@H](Cc1c[nH]cn1)C(=O)N[C@@H](Cc1ccc(O)cc1)C(=O)N[C@@H](Cc1ccc(O)cc1)C(=O)N[C@@H](Cc1c[nH]c2ccccc12)C(=O)N[C@@H](CCCNC(=N)N)C(=O)N[C@@H](CCC(N)=O)C(=O)N[C@@H](Cc1ccccc1)C(=O)N[C@@H](CC(=O)O)C(=O)N[C@@H](CC(=O)O)C(=O)N[C@@H](CO)C(=O)N[C@@H](Cc1ccccc1)C(=O)N[C@@H](CCSC)C(=O)N[C@@H](CCCNC(=N)N)C(=O)N1CCC[C@H]1C(=O)N[C@H](C(=O)N[C@@H](Cc1ccccc1)C(=O)NCC(=O)NCC(=O)N[C@@H](CCCNC(=N)N)C(=O)O)C(C)C)C(C)C)[C@@H](C)O)[C@@H](C)O)[C@@H](C)O` — result for “binding enthalpy (ΔH1)”: -4.28 ± 0.112 kcal/mol (Probable calcium-binding protein CML18 (CML18, Arabidopsis thaliana, UniProt Q9M8U1); isothermal titration calorimetry; concentration not given, pH 6.3, 25 °C, added: 18 µM EGTA).
The agonist effect of `O=c1cc(NCc2cccc3ccccc23)[nH]c(=O)[nH]1` is reported as 1% (FFAR4; agonist, β-arrestin recruitment; CHO cells; 10 µM; relative to: 30 µM TUG-891).
`O=c1nc(SCc2cc(F)cc(C(F)(F)F)c2)nc(SCc2ccc3nc(Cl)ccc3c2)[nH]1` — result for “ATP hydrolysis rate”: 0.353 µM/min and 2.92 µM/min (TOP2A; ATPase activity; 7.8 µM, added: ATP 1 mM).
`CCCNc1cc(=O)[nH]c(=O)[nH]1` has an agonist effect of 0% (FFAR4; β-arrestin recruitment; CHO; 10 µM; relative to: 30 µM TUG-891).
The binding stoichiometry of `N[C@@](CCCCB(O)O)(C(=O)O)C1CCN(Cc2ccc(Cl)c(Cl)c2)CC1` (racemic) is reported as 2.29 ± 0.02 (Arginase (Schistosoma mansoni, UniProt Q6WVP6); isothermal titration calorimetry; concentration not given).
`O=C(COc1cc(Cl)ccc1Cl)Nc1cc(C2CC2)nn1CC(F)(F)F` gave an Emax of 52% (Kir3.1/Kir3.2; thallium flux, activator; HEK293; relative to: standard compound).
For `Cc1nc(CSc2nc(SCc3ccc(C(C)C)cc3)nc(=O)[nH]2)cs1`, the decatenated DNA was 45.5% (TOP2A; decatenation; 7.8 µM, replicate 2).
For `CC[C@@H](C)[C@@H](NC(=O)[C@@H](Cc1ccc(O)cc1)NC(=O)[C@H]1CCCN1C(=O)[C@@H](CCCNC(=N)N)NC(=O)[C@H](N)Cc1c[nH]cn1)C(=O)N[C@H](C)C(=O)N[C@H](Cc1c[nH]cn1)C(=O)N[C@H](CCCNC(=N)N)C(=O)N[C@@H](C(=O)N[C@H](Cc1ccc(O)cc1)C(=O)N[C@H](CO)C(=O)N[C@H](Cc1ccccc1)C(N)=O)C(C)C`, the surface expression was 0.852 and 0.974 (Transferrin receptor protein 1 (Tfrc, Mus musculus, UniProt Q62351); flow cytometry; B16; 2 h, unit not given; relative to: 0 h).
For `O=C(ON1C(=O)CCC1=O)c1cc(C(F)(F)F)cc(C(F)(F)F)c1`, the kobs was 0.0573 min⁻¹ (CD209 antigen (CD209, Homo sapiens, UniProt Q9NNX6); covalent labelling, intact protein MS; 10 µM).
For `NC(Cc1cc(I)c(Oc2cc(I)c(O)c(I)c2)c(I)c1)C(=O)O` (centres unmarked), the deiodinase activity was 97.9% (Thyroxine 5-deiodinase (DIO3, Homo sapiens, UniProt P55073, T169S); substrate; concentration not given, 10 min; relative to: DMSO control).
For `CCCCCCCCNc1[nH]c(=O)[nH]c(=O)c1Br`, the inhibition was 14 ± 3% (FFAR4; antagonist, β-arrestin recruitment; CHO cells; 10 µM, added: 4 µM TUG-891).
The remaining activity of `O=C1NC(=O)C(c2c[nH]c3ccccc23)=C1c1c[nH]c2ccccc12` is reported as 89 ± 6.05% (TRPM8; antagonist; HEK293; 5 µM; relative to: control).
`NCCCS(=O)(=O)O`: “normalised MST signal” 0.0811 (SLC6A6 (Homo sapiens, UniProt P31641, G62A); binding, microscale thermophoresis; 122 nM, room temperature, added: 50 nM labelled protein; higher = more binding).
For `Cc1cc(NC(=O)C2CCc3cc(Cl)ccc3O2)n(C2CCS(=O)(=O)C2)n1` (centres unmarked), the Emax was 63% (Kir3.1/Kir3.2; thallium flux, activator; HEK293; relative to: standard compound).
The relative koff of `CC1=C(/C=C/C(C)=C/C=C/C(C)=C/C=O)C(C)(C)CCC1` is reported as 2.35 ± 0.7 (Rhodopsin (RHO, Bos taurus, UniProt P02699, I189T); retinal release, Trp FRET; lipid bicelles; 28 °C, I189T mutant; relative to: wild-type rhodopsin).
`Cc1ccc(CCNc2cc(=O)[nH]c(=O)[nH]2)cc1` gave an agonist effect of 1 ± 1% (FFAR4; agonist, β-arrestin recruitment; CHO cells; 10 µM; relative to: 30 µM TUG-891).
`c1coc(-c2n[nH]cc2-c2ccnc3ccccc23)c1`: “log2 fold change” -0.18 (Serine/threonine-protein kinase PKH2 (Candida albicans, UniProt Q5A3P6); kinase binding, MIB/MS competition; Candida albicans lysate; 1 µM; relative to: DMSO, negative = stronger binding).
For `Cc1ccc(S(=O)(=O)NCc2ccc(CNC(=O)c3ccncc3)cc2)cc1`, the EC was 10 nM (CXCR4 (Homo sapiens, UniProt P61073); binding, inhibitor, competitive binding; MDA-MB-231; added: biotinylated TN14003).
The inhibition of `CC[C@@H]1[C@H](F)C(=O)N[C@@H]1COc1nccc2cc(C(N)=O)c(OC)cc12` is reported as 9.3% (CAMK1D (Homo sapiens, UniProt Q8IU85); ATP-site probe binding, ActivX profiling; THP-1 cell lysate; 0.2 mM, Lys1 site).

For quick reference, copied from above:
`CCCNc1cc(=O)[nH]c(=O)[nH]1` has an agonist effect of 0% (FFAR4; β-arrestin recruitment; CHO; 10 µM; relative to: 30 µM TUG-891).
The binding stoichiometry of `N[C@@](CCCCB(O)O)(C(=O)O)C1CCN(Cc2ccc(Cl)c(Cl)c2)CC1` (racemic) is reported as 2.29 ± 0.02 (Arginase (Schistosoma mansoni, UniProt Q6WVP6); isothermal titration calorimetry; concentration not given).
`O=C(COc1cc(Cl)ccc1Cl)Nc1cc(C2CC2)nn1CC(F)(F)F` gave an Emax of 52% (Kir3.1/Kir3.2; thallium flux, activator; HEK293; relative to: standard compound).
